Measurements gathered from unrelated publications.
A part holds a random share of what one study measured. “And” joins repeats or separate records; there may be more than shown.
Sequence of UniProt Q13464 (whole entry, looked up): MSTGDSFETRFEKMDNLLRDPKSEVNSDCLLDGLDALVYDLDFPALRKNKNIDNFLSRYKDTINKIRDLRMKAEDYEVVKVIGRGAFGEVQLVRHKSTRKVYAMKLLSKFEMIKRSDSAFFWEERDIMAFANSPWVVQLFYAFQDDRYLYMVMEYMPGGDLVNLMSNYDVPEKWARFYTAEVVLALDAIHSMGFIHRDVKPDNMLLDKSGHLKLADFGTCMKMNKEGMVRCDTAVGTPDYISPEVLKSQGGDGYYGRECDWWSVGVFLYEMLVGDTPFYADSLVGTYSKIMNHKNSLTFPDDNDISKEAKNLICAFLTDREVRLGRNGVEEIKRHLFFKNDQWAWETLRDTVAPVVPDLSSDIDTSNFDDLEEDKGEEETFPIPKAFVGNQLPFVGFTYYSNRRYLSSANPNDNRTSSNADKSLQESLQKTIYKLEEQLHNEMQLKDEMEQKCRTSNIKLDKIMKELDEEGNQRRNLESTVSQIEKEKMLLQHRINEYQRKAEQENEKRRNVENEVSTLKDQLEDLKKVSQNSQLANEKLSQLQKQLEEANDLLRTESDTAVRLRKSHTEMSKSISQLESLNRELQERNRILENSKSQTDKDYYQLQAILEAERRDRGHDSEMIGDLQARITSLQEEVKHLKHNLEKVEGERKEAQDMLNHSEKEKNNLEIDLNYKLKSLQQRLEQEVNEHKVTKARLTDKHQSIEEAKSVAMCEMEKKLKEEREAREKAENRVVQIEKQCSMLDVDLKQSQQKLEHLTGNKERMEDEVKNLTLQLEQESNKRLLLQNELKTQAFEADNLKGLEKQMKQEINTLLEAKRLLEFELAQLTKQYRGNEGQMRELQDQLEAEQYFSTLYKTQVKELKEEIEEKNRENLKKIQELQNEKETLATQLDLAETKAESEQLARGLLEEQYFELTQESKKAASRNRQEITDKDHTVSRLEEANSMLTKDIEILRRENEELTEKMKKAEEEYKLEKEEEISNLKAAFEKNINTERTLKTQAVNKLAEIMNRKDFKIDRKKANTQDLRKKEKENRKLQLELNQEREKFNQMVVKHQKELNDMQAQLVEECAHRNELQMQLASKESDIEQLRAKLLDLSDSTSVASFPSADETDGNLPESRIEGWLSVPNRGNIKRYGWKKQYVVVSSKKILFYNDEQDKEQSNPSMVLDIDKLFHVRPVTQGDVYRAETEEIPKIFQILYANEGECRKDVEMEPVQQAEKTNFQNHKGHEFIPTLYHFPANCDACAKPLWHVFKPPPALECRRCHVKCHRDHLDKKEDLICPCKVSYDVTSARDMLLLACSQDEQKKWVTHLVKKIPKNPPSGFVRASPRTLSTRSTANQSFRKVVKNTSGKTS
Sequence of UniProt P50750 (whole entry, looked up): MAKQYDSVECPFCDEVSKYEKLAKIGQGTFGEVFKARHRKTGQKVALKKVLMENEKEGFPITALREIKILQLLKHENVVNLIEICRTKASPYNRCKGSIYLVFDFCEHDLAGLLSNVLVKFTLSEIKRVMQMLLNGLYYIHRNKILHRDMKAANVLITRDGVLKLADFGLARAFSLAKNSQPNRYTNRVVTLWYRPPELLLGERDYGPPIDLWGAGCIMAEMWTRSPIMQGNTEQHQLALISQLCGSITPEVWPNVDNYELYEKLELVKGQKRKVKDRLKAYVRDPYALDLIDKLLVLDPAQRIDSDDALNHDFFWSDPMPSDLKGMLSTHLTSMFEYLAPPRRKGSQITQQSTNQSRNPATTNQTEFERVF
Sequence of UniProt P28482 (whole entry, looked up): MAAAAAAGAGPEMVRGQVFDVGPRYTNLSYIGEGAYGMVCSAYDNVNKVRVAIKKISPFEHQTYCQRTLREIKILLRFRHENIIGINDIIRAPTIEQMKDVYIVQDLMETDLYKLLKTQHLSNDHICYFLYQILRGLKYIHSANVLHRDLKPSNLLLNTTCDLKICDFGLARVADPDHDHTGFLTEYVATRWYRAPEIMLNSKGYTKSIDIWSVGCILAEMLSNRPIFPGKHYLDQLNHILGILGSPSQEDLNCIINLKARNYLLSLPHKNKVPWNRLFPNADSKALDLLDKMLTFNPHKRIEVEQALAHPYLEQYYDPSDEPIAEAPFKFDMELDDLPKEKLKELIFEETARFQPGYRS
Sequence of UniProt P54762 (whole entry, looked up): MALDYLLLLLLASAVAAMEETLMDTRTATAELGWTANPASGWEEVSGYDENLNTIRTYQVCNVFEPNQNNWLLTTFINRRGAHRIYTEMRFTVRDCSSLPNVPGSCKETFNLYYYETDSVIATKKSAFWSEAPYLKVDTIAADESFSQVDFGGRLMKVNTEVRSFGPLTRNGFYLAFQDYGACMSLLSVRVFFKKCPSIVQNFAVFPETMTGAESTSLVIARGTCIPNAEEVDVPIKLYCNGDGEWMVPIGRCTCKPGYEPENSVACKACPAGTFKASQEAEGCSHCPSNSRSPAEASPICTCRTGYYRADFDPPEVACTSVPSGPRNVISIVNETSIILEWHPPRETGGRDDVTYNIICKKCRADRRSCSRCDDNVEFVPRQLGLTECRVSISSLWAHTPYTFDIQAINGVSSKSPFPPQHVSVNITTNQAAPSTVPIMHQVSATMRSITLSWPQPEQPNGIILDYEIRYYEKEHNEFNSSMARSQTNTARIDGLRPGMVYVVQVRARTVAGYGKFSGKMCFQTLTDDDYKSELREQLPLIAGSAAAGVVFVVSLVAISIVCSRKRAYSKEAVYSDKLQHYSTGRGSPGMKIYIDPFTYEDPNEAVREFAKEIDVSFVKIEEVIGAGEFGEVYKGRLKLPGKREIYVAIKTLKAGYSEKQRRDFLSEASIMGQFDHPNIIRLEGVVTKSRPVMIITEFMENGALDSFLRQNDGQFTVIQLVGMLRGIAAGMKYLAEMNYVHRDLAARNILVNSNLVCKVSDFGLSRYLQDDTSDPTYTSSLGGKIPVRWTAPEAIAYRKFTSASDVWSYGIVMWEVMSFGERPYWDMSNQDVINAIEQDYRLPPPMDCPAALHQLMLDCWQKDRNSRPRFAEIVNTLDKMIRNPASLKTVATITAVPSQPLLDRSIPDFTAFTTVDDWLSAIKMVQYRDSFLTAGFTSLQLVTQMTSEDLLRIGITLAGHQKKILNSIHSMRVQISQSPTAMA
Sequence of UniProt Q02750 (whole entry, looked up): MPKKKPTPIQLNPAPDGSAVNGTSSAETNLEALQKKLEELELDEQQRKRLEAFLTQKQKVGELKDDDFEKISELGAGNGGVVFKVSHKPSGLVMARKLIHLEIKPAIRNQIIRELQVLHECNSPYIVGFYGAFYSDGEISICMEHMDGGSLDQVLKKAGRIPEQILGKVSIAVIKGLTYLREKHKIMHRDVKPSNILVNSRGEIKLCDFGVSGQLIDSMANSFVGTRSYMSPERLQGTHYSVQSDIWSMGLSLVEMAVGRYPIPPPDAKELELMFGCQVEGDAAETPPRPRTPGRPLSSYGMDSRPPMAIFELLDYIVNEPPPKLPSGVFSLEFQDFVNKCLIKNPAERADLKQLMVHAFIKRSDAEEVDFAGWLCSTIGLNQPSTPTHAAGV
Sequence of UniProt Q7KZI7 (whole entry, looked up): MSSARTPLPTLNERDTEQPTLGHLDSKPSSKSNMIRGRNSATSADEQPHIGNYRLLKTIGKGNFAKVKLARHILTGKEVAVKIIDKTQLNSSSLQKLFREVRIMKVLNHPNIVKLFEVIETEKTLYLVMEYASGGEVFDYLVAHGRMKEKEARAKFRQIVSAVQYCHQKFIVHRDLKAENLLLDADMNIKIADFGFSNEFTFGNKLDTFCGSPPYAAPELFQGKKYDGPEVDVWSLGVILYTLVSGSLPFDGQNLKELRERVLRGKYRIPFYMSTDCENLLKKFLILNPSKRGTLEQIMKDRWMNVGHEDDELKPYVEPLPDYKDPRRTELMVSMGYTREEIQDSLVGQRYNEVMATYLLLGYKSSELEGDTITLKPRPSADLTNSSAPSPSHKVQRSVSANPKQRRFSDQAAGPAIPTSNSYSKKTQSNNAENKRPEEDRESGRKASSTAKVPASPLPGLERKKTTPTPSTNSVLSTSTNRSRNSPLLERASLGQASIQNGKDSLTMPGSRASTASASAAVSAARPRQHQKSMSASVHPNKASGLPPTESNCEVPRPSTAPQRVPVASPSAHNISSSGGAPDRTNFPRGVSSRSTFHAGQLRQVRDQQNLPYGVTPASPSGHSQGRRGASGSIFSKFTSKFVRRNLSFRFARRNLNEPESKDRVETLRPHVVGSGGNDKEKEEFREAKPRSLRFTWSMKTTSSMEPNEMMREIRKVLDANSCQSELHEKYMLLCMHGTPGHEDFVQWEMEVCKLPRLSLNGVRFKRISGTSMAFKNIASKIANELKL
Sequence of UniProt Q15759 (whole entry, looked up): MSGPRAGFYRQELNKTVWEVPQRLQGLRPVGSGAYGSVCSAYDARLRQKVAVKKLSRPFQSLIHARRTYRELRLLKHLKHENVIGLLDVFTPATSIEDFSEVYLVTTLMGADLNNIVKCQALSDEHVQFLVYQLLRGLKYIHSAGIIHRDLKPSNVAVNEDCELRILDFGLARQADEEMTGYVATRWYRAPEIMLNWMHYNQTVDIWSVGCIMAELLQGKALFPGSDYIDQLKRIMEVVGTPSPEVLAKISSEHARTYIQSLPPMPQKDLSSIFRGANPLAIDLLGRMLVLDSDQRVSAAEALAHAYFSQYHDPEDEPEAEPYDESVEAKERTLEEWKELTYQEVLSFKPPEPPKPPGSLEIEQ
Sequence of UniProt Q6P2M8 (whole entry, looked up): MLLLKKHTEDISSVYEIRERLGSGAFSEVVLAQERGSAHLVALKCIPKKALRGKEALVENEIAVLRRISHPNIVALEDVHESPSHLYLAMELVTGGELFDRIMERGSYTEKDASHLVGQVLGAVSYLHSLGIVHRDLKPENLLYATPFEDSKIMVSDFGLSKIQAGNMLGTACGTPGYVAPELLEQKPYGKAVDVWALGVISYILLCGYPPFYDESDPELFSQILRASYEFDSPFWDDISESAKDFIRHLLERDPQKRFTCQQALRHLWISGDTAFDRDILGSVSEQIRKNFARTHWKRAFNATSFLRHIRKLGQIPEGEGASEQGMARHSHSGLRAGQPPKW

Series 1 — cell line: mouse MPNST tumor cells; method: high-content nuclear imaging; measured: cell number; tested at: 10 µM; time: 12 h; setting: mean of 2 replicates; relative to: plate mean; reading: higher = more cells
Structure (SMILES)	nuclei count
CN(C)CCCO[C@@H]1[C@H]2OC(C)(C)O[C@H]2O[C@@H]1[C@H](O)CO	1.43 z-score
Cc1ccc(NC(=O)c2cccc(C(C)(C)C#N)c2)cc1Nc1ccc2ncn(C)c(=O)c2c1	1.92 z-score
Oc1c(Cl)cc(Cl)c(Cl)c1Cc1c(O)c(Cl)cc(Cl)c1Cl	3.58 z-score
CC(C)(C)CC(C)(C)c1ccc(OCOCCOCCO)c(Cc2cc(C(C)(C)CC(C)(C)C)cc(Cc3cc(C(C)(C)CC(C)(C)C)ccc3OCOCCOCCO)c2OCOCCOCCO)c1	1.23 z-score
C[C@@]1(O)[C@H](O)[C@@H](CO)O[C@H]1n1cnc2c(NC3CCCC3)nc(Cl)nc21	-0.079 z-score

Series 2 — observed: enzyme activity; action: inhibitor; tested at: 0.5 µM; relative to: control
SMILES: O=Nc1c(-c2c(O)[nH]c3cc(Br)ccc23)[nH]c2ccccc12
target	remaining activity
PRKG2 (Homo sapiens, UniProt Q13237)	69.1%
CDC42BPB (Homo sapiens, UniProt Q9Y5S2)	97.5%
DCLK2 (Homo sapiens, UniProt Q8N568)	99.1%
ROCK1 (Homo sapiens, UniProt Q13464)	99%
Cyclin-dependent kinase 9, with cyclin K (CDK9, Homo sapiens, UniProt P50750)	37.5%
MET (Homo sapiens, UniProt P08581)	70%
MAPK1 (Homo sapiens, UniProt P28482)	113%
MAP2K1 (Homo sapiens, UniProt Q02750)	103%
MAPK11 (Homo sapiens, UniProt Q15759)	99.6%
PLK3 (Homo sapiens, UniProt Q9H4B4)	95.3%
DDR2 (Homo sapiens, UniProt Q16832)	69.7%
PNCK (Homo sapiens, UniProt Q6P2M8)	105%
MARK2 (Homo sapiens, UniProt Q7KZI7)	61.8%

Series 3 — observed: cell-free assay; method: competition with immobilised ligand; tested at: 1 µM
Structure (SMILES): Cc1c(NC(=O)c2cc(C(N)=O)nc3cc(F)ccc23)c(C(F)(F)F)nn1Cc1ccc(C(C)(C)C)cc1
target	remaining binding
Tyrosine-protein kinase ABL1, non-phosphorylated (ABL1, Homo sapiens, UniProt P00519)	96%
EPHB1 (Homo sapiens, UniProt P54762)	86%
SNRK (Homo sapiens, UniProt Q9NRH2)	93%
KIT (Homo sapiens, UniProt P10721)	99%
SBK3 (Homo sapiens, UniProt P0C264)	100%
PRKCD (Homo sapiens, UniProt Q05655)	100%
NLK (Homo sapiens, UniProt Q9UBE8)	100%

Mixed results
Compound	system	conditions	quantity	value
COc1ccc(-c2c(Nc3ccccn3)[nH]c3c(C4=CCCCC4)c(-c4ccccc4)nn3c2=O)cc1	human, plasma	oral, 200 mg twice daily	AUC extrapolated, observed	93.1% and 84.7% and 89.6%

For quick reference, copied from above (series 1):
Structure (SMILES)	nuclei count
Oc1c(Cl)cc(Cl)c(Cl)c1Cc1c(O)c(Cl)cc(Cl)c1Cl	3.58 z-score
Cc1ccc(NC(=O)c2cccc(C(C)(C)C#N)c2)cc1Nc1ccc2ncn(C)c(=O)c2c1	1.92 z-score
CC(C)(C)CC(C)(C)c1ccc(OCOCCOCCO)c(Cc2cc(C(C)(C)CC(C)(C)C)cc(Cc3cc(C(C)(C)CC(C)(C)C)ccc3OCOCCOCCO)c2OCOCCOCCO)c1	1.23 z-score
C[C@@]1(O)[C@H](O)[C@@H](CO)O[C@H]1n1cnc2c(NC3CCCC3)nc(Cl)nc21	-0.079 z-score
